Published values gathered from unrelated publications.
Parts stem from different laboratories: compare values within a part only. “And” joins repeats or separate records; there may be more than shown.
Chain of UniProt Q9HBH9 (whole entry, looked up): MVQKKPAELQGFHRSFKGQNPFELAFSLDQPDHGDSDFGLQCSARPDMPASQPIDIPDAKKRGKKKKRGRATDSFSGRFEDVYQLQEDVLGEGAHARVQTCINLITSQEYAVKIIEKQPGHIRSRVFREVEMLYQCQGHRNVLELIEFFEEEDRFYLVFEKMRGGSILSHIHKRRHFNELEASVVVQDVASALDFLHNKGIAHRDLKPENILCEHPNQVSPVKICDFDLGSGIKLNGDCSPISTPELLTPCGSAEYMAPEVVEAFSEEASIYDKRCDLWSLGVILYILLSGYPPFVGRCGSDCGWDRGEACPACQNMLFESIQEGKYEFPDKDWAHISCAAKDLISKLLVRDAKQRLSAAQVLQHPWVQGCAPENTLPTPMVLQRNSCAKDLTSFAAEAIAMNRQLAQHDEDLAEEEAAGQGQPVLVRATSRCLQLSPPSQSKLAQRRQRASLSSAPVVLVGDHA
Chain of UniProt P35916 (whole entry, looked up): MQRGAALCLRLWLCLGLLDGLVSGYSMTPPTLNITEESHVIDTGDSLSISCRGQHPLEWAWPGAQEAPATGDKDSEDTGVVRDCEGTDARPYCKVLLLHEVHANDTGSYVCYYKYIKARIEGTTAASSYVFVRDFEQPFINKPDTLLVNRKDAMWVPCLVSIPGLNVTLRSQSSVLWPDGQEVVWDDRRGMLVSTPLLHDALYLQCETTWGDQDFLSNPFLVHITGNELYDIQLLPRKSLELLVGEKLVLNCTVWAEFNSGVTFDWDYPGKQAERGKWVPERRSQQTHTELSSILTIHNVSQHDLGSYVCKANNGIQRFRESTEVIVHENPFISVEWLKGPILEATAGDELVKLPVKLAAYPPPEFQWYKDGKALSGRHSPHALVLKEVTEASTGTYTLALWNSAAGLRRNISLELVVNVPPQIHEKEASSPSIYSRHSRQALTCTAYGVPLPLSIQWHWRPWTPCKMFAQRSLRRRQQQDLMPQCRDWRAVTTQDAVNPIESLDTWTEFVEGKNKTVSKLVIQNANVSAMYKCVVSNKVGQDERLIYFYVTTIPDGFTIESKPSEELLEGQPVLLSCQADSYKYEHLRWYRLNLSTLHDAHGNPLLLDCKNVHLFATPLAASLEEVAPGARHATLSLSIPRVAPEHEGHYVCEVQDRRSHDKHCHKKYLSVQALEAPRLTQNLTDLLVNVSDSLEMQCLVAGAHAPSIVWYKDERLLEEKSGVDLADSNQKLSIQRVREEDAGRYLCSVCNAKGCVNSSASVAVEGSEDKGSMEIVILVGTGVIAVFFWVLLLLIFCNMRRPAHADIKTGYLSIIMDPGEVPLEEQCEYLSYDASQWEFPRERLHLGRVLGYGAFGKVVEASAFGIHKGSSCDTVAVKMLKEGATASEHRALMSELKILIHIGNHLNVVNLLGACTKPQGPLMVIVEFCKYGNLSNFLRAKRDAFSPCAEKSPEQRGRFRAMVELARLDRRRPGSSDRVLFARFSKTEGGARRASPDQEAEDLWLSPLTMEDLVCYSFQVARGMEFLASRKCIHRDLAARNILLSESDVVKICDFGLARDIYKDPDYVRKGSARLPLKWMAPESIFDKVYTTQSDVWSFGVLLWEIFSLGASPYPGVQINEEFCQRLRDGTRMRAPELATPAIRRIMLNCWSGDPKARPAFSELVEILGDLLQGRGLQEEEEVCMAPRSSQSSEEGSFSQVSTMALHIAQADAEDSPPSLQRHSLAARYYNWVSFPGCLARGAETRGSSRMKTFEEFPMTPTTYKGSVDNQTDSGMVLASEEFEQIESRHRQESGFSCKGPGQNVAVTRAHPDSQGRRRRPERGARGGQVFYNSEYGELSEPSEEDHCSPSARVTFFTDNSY
Chain of UniProt O14936 (whole entry, looked up): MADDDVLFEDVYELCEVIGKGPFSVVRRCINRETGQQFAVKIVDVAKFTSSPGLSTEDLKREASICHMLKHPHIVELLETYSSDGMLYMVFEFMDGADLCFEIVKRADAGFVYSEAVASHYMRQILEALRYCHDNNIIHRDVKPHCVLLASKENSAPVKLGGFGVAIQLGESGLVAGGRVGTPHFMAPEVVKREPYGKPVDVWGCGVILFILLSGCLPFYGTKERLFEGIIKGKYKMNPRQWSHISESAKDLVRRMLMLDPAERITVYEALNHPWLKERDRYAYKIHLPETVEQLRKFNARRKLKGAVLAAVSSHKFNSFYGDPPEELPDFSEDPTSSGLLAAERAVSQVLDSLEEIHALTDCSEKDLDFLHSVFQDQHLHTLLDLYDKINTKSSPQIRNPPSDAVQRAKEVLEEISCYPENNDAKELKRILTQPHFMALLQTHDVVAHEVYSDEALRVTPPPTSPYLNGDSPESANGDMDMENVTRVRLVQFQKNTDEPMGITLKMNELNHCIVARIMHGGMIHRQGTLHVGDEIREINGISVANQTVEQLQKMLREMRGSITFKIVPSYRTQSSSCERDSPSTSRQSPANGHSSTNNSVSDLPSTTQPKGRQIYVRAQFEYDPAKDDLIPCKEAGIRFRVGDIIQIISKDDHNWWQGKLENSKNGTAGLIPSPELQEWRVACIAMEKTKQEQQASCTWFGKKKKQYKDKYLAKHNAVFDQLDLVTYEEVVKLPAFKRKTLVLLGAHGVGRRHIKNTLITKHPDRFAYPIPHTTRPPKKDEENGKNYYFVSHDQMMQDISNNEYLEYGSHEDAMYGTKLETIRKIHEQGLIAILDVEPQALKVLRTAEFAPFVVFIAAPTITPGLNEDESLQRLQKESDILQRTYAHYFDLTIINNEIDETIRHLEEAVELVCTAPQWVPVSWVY
Chain of UniProt Q9BRS2 (whole entry, looked up): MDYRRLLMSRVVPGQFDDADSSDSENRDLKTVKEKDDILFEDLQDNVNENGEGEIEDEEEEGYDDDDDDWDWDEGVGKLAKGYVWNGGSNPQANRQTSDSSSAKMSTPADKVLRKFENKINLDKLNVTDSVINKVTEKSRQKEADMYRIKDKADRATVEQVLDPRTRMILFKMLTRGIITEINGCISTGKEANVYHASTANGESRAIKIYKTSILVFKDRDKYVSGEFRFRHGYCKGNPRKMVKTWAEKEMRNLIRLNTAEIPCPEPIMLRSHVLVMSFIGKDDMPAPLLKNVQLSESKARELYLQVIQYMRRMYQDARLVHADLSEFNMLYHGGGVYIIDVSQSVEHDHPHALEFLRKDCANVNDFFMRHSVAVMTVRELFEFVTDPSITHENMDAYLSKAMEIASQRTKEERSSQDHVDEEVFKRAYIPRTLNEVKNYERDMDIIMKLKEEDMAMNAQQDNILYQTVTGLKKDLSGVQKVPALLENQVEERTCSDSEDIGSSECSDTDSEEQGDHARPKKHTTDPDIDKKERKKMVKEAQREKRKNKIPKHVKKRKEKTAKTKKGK

Study 1
Compound: C[C@@H]1CN(c2ccc(-c3cc(C(=O)NCCOCCOCCOCCOCCNC(=O)/C=C/c4[nH]cc(C(=O)N[C@@H](CC(N)=O)c5ccc(F)c(Cl)c5)c4-c4ccc(Cl)cc4F)ccc3F)cc2NC(=O)c2c[nH]c(=O)cc2C(F)(F)F)C[C@H](C)N1C
Read-out: thermal unfolding
Method: differential scanning fluorimetry
Concentration: 5.5 µM
Direction: higher = more unfolded
Endpoint: SYPRO Orange fluorescence
WDR5: WD repeat-containing protein 5 (WDR5, Homo sapiens, UniProt P61964)
DCAF1: DDB1- and CUL4-associated factor 1 (DCAF1, Homo sapiens, UniProt Q9Y4B6)
Chain of UniProt Q9Y4B6 (whole entry, looked up): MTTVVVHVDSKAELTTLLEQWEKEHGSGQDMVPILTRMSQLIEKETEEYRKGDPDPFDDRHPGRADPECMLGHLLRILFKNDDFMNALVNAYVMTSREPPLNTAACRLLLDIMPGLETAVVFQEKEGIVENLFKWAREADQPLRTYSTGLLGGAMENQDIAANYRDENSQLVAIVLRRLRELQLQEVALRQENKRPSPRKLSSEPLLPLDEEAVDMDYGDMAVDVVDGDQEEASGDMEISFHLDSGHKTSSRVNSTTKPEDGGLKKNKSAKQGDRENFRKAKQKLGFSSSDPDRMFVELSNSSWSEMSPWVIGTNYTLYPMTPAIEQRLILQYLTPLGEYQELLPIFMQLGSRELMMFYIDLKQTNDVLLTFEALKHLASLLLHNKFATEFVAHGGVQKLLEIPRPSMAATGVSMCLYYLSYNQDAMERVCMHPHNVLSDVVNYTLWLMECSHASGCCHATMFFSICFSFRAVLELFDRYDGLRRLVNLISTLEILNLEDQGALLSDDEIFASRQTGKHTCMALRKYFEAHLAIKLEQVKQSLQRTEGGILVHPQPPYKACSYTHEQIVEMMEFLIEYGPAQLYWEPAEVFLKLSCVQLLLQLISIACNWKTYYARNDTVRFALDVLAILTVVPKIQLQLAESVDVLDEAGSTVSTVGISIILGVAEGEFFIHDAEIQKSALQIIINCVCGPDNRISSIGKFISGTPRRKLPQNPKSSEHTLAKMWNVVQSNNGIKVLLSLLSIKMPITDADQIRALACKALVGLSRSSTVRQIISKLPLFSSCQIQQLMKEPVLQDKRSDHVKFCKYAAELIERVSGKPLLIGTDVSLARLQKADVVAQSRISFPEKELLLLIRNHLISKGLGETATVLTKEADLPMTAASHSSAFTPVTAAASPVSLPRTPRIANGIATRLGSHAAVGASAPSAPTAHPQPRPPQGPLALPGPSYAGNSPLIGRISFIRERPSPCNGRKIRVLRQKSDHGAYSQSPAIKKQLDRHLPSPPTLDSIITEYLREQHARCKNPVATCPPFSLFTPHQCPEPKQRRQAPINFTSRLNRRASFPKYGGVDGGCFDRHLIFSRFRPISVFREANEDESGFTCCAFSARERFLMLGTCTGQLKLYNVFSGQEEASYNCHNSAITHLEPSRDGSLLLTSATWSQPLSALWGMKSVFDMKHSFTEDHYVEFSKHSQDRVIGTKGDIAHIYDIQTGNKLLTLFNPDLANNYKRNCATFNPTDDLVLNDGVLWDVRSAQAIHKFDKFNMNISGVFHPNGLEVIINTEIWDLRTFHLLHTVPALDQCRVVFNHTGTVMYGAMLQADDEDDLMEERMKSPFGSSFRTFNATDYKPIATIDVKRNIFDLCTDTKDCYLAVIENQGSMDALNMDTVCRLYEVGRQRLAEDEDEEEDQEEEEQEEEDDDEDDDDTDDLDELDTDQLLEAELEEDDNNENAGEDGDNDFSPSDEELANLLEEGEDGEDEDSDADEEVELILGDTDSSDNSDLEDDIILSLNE
WDR5; 83.81 °C: 50200 a.u.
WDR5; 94.21 °C: 46100 a.u.
DCAF1; 56.01 °C: 24000 a.u.
WDR5; 62.81 °C: 14500 a.u.
DCAF1; 87.41 °C: 37500 a.u.
WDR5; 30.2 °C: 12700 a.u.
WDR5; 82.41 °C: 47100 a.u.
DCAF1; 27.4 °C: 8880 a.u.

Study 2
Compound: COCC1CC2C(CCC3(C)C(O)CCC23)c2ccc(O)cc21 (centres unmarked)
Method: DNA microarray
Relative to: untreated cells
Endpoint: mRNA level ratio
A549; item: CALR3; 50 µM: 1.74
A549; item: MCM4; 50 µM: 0.699
A549; item: DNER; 50 µM: 23
A549; item: CDC25B; 100 µM: 1.31
PANC-1; item: MCM10; concentration not given, higher dose arm: 0.485
A549; item: RFC3; 50 µM: 0.828
PANC-1; item: GADD45A; concentration not given, lower dose arm: 0.928
SK-OV-3; item: OLIG2; concentration not given, lower dose arm: 10.2
SK-OV-3; item: MCM6; concentration not given, lower dose arm: 0.916
SK-OV-3; item: OLIG2; concentration not given, higher dose arm: 11
A549; item: AURKA; 100 µM: 0.505
PANC-1; item: KIF20A; concentration not given, lower dose arm: 0.673 and 0.662 and 0.665 and 0.669 and 0.643
A549; item: AURKA; 50 µM: 0.748
PANC-1; item: CCL11; concentration not given, lower dose arm: 1
PANC-1; item: CCL8; concentration not given, lower dose arm: 32.4
PANC-1; item: GAPDH; concentration not given, higher dose arm: 0.988 and 0.925 and 0.977 and 0.985 and 1

Study 3
SMILES: CC[C@@]1(c2cccc(-c3c(F)cncc3OC)c2)C2=C(Nc3n[nH]cc31)[C@H](F)C(C)(C)CC2=O (single isomer, unassigned)
Concentration: 1 µM
Endpoint: remaining binding
1-phosphatidylinositol 3-phosphate 5-kinase (PIKFYVE, Homo sapiens, UniProt Q9Y2I7); binding, competition with immobilised ligand: 81%
Serine/threonine-protein kinase NIM1 (NIM1K, Homo sapiens, UniProt Q8IY84); binding, competition with immobilised ligand: 61%
Wee1-like protein kinase (WEE1, Homo sapiens, UniProt P30291); binding, competition with immobilised ligand: 92%
Serine/threonine-protein kinase 35 (STK35, Homo sapiens, UniProt Q8TDR2); binding, competition with immobilised ligand: 100%
Peripheral plasma membrane protein CASK (CASK, Homo sapiens, UniProt O14936); binding, competition with immobilised ligand: 74%
Ephrin type-A receptor 4 (EPHA4, Homo sapiens, UniProt P54764); binding, competition with immobilised ligand: 100%
MAP kinase-interacting serine/threonine-protein kinase 2 (MKNK2, Homo sapiens, UniProt Q9HBH9); kinase binding, KINOMEscan; relative to: DMSO control: 47%
Tyrosine-protein kinase FRK (FRK, Homo sapiens, UniProt P42685); kinase binding, KINOMEscan; relative to: DMSO control: 100%
Ribosomal protein S6 kinase alpha-2, N-terminal kinase domain (RPS6KA2, Homo sapiens, UniProt Q15349); binding, competition with immobilised ligand: 100%
Serine/threonine-protein kinase RIO1 (RIOK1, Homo sapiens, UniProt Q9BRS2); binding, competition with immobilised ligand: 59%
Vascular endothelial growth factor receptor 3 (FLT4, Homo sapiens, UniProt P35916); kinase binding, KINOMEscan; relative to: DMSO control: 91%
Testis-specific serine/threonine-protein kinase 1 (TSSK1B, Homo sapiens, UniProt Q9BXA7); kinase binding, KINOMEscan; relative to: DMSO control: 95%

Study 4
SMILES: Cc1ccc(O)c(C)c1-c1cnc2[nH]c(-c3ccc(N4CCN(C)CC4)nc3C)nc2c1
Target: Membrane-associated tyrosine- and threonine-specific cdc2-inhibitory kinase (PKMYT1, Homo sapiens, UniProt Q99640)
Endpoint: inhibition
Residues (Q99640 1-499): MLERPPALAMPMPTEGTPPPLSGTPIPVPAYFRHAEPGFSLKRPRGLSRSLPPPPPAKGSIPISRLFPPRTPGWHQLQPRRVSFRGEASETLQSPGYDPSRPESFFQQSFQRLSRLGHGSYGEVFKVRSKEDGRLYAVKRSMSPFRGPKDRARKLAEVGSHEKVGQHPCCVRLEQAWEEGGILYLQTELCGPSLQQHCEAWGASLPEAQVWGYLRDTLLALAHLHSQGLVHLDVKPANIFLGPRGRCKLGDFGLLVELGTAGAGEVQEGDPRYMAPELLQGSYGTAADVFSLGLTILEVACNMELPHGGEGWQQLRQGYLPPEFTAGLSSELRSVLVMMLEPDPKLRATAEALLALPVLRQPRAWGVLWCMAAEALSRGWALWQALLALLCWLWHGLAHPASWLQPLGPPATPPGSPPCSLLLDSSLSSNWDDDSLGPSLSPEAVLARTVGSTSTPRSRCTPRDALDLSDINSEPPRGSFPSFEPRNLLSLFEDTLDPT
0.00457 µM: -14% and -15.5%
0.00051 µM: -13.6%
cell-free assay, TR-FRET; 10 µM: 97.3%
0.00152 µM: -15.9% and -17.3%
0.000508 µM: -13.6%
0.01372 µM: -10.8% and -9.8%
0.04115 µM: -1.82% and 2.68%
cell-free assay, TR-FRET; 0.1235 µM: 20.1%

Repeated from above (study 3):
Wee1-like protein kinase (WEE1, Homo sapiens, UniProt P30291); binding, competition with immobilised ligand: 92%
Serine/threonine-protein kinase 35 (STK35, Homo sapiens, UniProt Q8TDR2); binding, competition with immobilised ligand: 100%
Peripheral plasma membrane protein CASK (CASK, Homo sapiens, UniProt O14936); binding, competition with immobilised ligand: 74%
Ephrin type-A receptor 4 (EPHA4, Homo sapiens, UniProt P54764); binding, competition with immobilised ligand: 100%
